Published values of several laboratories.
A part holds a random share of what one study measured.

Sample 1
Target: Phosphate system positive regulatory protein PHO4, full length, GST-tagged (PHO4, Saccharomyces cerevisiae, UniProt P07270, residues 1-312)
Technique: competition protein-binding microarray
Form: double-stranded DNA, one strand shown
Matrix: in vitro
Concentration: 2 µM
Notes: whole 60-bp probe, lowest competitor level
Added: Cbf1 competitor, 0.05 µM
Direction: higher = stronger binding
Construct (chain): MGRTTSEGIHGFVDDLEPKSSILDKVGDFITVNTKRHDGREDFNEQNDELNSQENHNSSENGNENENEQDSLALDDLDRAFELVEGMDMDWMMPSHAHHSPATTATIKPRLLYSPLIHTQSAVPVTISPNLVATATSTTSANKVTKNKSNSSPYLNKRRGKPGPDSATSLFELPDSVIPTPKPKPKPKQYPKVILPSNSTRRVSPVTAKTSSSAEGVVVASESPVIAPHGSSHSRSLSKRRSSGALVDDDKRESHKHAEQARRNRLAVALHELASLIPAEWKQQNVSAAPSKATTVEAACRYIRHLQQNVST
For `TTATCTTCAACAAGAAACGTGACGGTACTCATAAAGGTCTTGATTCGCTTGACGCTGCTG`, the fluorescence intensity was 11600 a.u.
`AAATTACTAAGTTGTCACCTAACTTACCCCGTATGAGTCTTGATTCGCTTGACGCTGCTG` gave a fluorescence intensity of 3110 a.u.
The fluorescence intensity of `AGCCCCTATAGTAGCTTCGTGATGGGGTAGAACTTCGTCTTGATTCGCTTGACGCTGCTG` is reported as 3520 a.u.
For `AAAGTCTGCGACAATCACGTGCTAAAGCTGGTCTCAGTCTTGATTCGCTTGACGCTGCTG`, the fluorescence intensity was 16000 a.u.

Sample 2
Target: RNA binding protein fox-1 homolog 2, RRM domain, GST-SBP tag (RBFOX2, Homo sapiens, UniProt O43251-10, residues 100-194)
Technique: RNA Bind-n-Seq
Form: RNA
Matrix: in vitro
Concentration: 365 nM
Notes: natural RNA segment, single round, ends assumed
Baseline: no-protein control
Direction: higher = stronger binding
Construct (chain): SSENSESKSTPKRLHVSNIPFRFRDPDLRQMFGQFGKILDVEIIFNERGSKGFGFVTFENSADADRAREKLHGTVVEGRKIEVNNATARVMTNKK
`GGGAGUUCUACAGUCCGACGAUCCUAGUUAACAUGGGGAAAGAUGACAACAUUGUAUGUAGUGUUGAACCUGAAGACAUCCUACAAUGAUUUCCCACACUCUAUUUUUCCUUAUGUUUGCUUAAAUAGCAAAAUGGAAUUCUCGGGUGCCAA` — result for “RBNS enrichment (R)”: 0.27.
`GGGAGUUCUACAGUCCGACGAUCAUGGGCGCCUGGGUGUGGUCUUGUUAAAUCGGUGUCGCACAUUUUAAUCGGUAAUCUGCUGGCUUGUUUGUUAACCAGAACGAUGAAUUUAUCAGUGAUUUGUAAGUUUCUGGAAUUCUCGGGUGCCAA`: “RBNS enrichment (R)” 5.32.
For `GGGAGUUCUACAGUCCGACGAUCCUGGGAACUCUCCCAUUUUCAGGUUUCUAGAGCUGUCGAUAAAAUCCUGUGAACUGAGAGCGAGGAGCAGUGUAGGAAAUUGCAAUGUGUGGUUCAUGCAUUGUCUUUGAUGGAAUUCUCGGGUGCCAA`, “RBNS enrichment (R)” read 0.419.

Sample 3
Target: Histone acetyltransferase KAT6A, winged helix 2, GST fusion (KAT6A, Homo sapiens, UniProt Q92794, residues 85-181)
Technique: protein binding microarray
Form: double-stranded DNA, one strand shown
Matrix: in vitro
Concentration: not given
Notes: 8-mer, flanks averaged, mean of 2 arrays, mostly near background
Baseline: not given
Direction: higher = stronger binding
Target sequence (chain): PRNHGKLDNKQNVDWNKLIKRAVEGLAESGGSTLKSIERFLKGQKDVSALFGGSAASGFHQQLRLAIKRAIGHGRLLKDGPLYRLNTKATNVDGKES
`GGTCCGAC` gave an E-score of 0.0108.
`AGAGTCGA` has an E-score of -0.166.
The E-score of `GACGCAGA` is reported as 0.169.
For `AGTATATG`, the E-score was -0.0789.

Mixed results
`PhoQ, residues 284 288 289 292 302 303 TYGVAM` has a fold induction of 11.5 (PhoP, residues 12 14 15 18 19 SPWRL (Escherichia coli, UniProt P23836); Sort-seq, refers to: YFP reporter; E. coli; PhoQ-PhoP variant library, added: 10 µM Mg2+; baseline: high Mg2+ state, higher = stronger signaling).

For quick reference, copied from above (sample 3):
`AGAGTCGA` has an E-score of -0.166.
